Measurements from different studies.
Compare with care: the assays were run in different laboratories.

SMILES | cell line | assay | system | conditions | IC50
CC1CCC2C(C)C(OC(=O)CCC(=O)N3CCN(CC(=O)Nc4ccc([N+](=O)[O-])c(C(F)(F)F)c4)CC3)OC3OC4(C)CCC1C32OO4 (centres unmarked) | 7702 normal human cells | cell growth, CCK-8 |  | 48 h | 4190 nM
O=C1C=CC(=O)c2c(O)cccc21 | HuCC-A1 | cell growth or viability, MTT |  |  | 12400 nM
CC(=O)O[C@H]1C[C@@H](C)O[C@H]2O[C@@H]3C[C@@H]4CC[C@@H]5[C@H](CC[C@]6(C)[C@@H](C7=CC(=O)OC7)CC[C@]56O)[C@@]4(C)C[C@H]3O[C@]21O | L6 | cell growth or viability, resazurin |  | 72 h | 1020 nM
c1cnc2c(c1)c1nccnc1c1cccnc12 | BEL-7404 | cell growth or viability, MTT |  | 48 h | > 50000 nM
Cc1sc2c(c1C)C(c1ccc(-c3cccc(NC(=O)c4cnn5cccnc45)c3)cc1)=N[C@@H](CC(N)=O)c1nnc(C)n1-2 | Kasumi 1 | cell growth or viability, ATP luminescence |  | 72 h | 8.3 nM
Cc1cc(Oc2nc(N3CC[C@@H](c4ccncc4)C3)ncc2F)[nH]n1 | LoVo | cell proliferation | colon cancer |  | 25700 nM
O[C@]12C=C(c3nccc4c3[nH]c3ccccc34)[C@@H]3CCN(CCCC/C=C\CC1)C[C@@]31C[C@@H]3/C=C\CCCCN3[C@H]12 | KB | cell growth or viability, neutral red |  | 48 h | 1 µg/mL
O=C(c1cc(Cc2n[nH]c(=O)c3ccccc23)ccc1F)N1CC(CNC2CC2)C1 | MDA-MB-453 |  |  |  | 2.6 nM
CC(C)C12OC1C1OC13C1(C)CCC4=C(COC4=O)C1CC1OC13C2OC(=O)CCCOC1OC(CO)C(O)C(O)C1O (centres unmarked) | SK-MEL-1 | cell growth or viability, XTT |  | 47 h | 3440 nM
Cc1ccccc1/C=C/C(=O)N[C@@H]1C(=O)N[C@@H](Cc2ccccc2)C(=O)N[C@H](CC(C)C)C(=O)N[C@@H](C(C)C)C(=O)N[C@@H](C)C(=O)N[C@H](CCC(N)=O)C(=O)NCC(=O)N2CCC[C@H]2C(=O)N[C@@H](CCCNC(=N)N)C(=O)N[C@H](Cc2ccccc2)C(=O)O[C@H]1C | SK-HEP1 |  |  |  | > 20000 nM
CC(=O)[O][Pt]([NH2])([NH2])([Cl])([Cl])[O]C(=O)C(Cl)Cl | BCPAP | cell growth or viability, MTT |  | 72 h | 730 nM
Cc1ccccc1/C=C/C(=O)N[C@@H](CO)C(=O)N[C@H](C(=O)N[C@H](Cc1ccccc1)C(=O)N[C@@H]1C(=O)N2[C@@H](CC(=O)O)C(=O)Nc3ccccc3[C@@]2(O)[C@@H]1O)[C@@H](C)O | SK-HEP1 |  |  |  | > 20000 nM
CSc1ccc2c(c1)c(CCN)c(C)n2Cc1ccccc1Cl | BV-2 | cell count, high-content imaging |  | geometric mean | 7000 nM
Cc1cc(Nc2nc(C[C@@]3(C(=O)O)CCN(Cc4cccc(Cl)c4F)[C@H](C)C3)cc(C)c2F)[nH]n1 | BT-549 | cell growth or viability, ATP luminescence |  | 5 days | 61.6 nM
CC(C)C12OC1C1OC13C1(C)CCC4=C(COC4=O)C1CC1OC13C2OC(=O)CCC(=O)OC1OC(CO)C(O)C(O)C1O (centres unmarked) | HEK-293T | cell growth or viability, thymidine uptake |  | 24 h | 279 nM
CSc1ccc2c(c1)c(CCN)c(C)n2Cc1ccc(Cl)cc1 | HMC3 | cell growth or viability, imaging |  |  | 4540 nM
CN(C)C(=O)[C@@H](NC(=O)c1cc(-c2ccnn2C)ccc1-c1ccc(C(F)(F)F)cc1)c1cccc(C(F)(F)F)c1 | NKL effector, Ba/F3-ULBP5 target | NKG2D-mediated cell killing, inhibitor |  |  | 400 nM
CC1CCC2C(C)C(OC(=O)CCC(=O)OC3C(C)OC(n4cc(F)c(=O)[nH]c4=O)C3OC(=O)CCC(=O)OC3OC4OC5(C)CCC6C(C)CCC(C3C)C46OO5)OC3OC4(C)CCC1C32OO4 (centres unmarked) | IOSE-144 | cell growth or viability, CCK-8 |  |  | 12800 nM
CCOc1ccccc1-n1c(CN2CCNCC2)nc2ccccc2c1=O | CAL-33 | cell growth or viability |  | 72 h | 154 nM
Cc1sc2c(c1C)C(c1ccc(NC(=O)c3cc([N+](=O)[O-])ccc3F)cc1)=N[C@@H](CC(=O)OC(C)(C)C)c1nnc(C)n1-2 | BXPC-3 | cell growth or viability, ATP luminescence |  | 72 h | 0.044 nM
C[C@H]1[C@H](OC(=O)CCC(=O)OCCC2CCN(CC(=O)Nc3ccc([N+](=O)[O-])c(C(F)(F)F)c3)CC2)O[C@@H]2O[C@@]3(C)CC[C@H]4[C@H](C)CC[C@@H]1[C@@]24OO3 | IOSE-144 | cell growth or viability, CCK-8 |  |  | > 50000 nM
[CH3][Ti+2][O]C(=O)c1ccc([S][Au][PH](c2ccccc2)(c2ccccc2)c2ccccc2)cc1.c1cc[cH-]c1.c1cc[cH-]c1 | HEK-293T | cell growth or viability, XTT |  | 24 h | 1670 nM
CC(C)C[C@H](NC(=O)[C@H](Cc1ccccc1)NC(=O)[C@H](C)NC(=O)[C@@H](CS)NC(=O)CNC(=O)[C@H](N)CO)C(=O)N[C@@H](CO)C(=O)N[C@H](C(=O)N[C@@H](CCCCN)C(=O)N[C@@H](CCCCN)C(=O)N[C@@H](CCC(N)=O)C(=O)N[C@@H](Cc1ccccc1)C(=O)N[C@@H](CCC(=O)O)C(=O)N[C@@H](CCC(=O)O)C(=O)N[C@@H](CC(C)C)C(=O)N[C@H](C(=O)N[C@@H](CC(C)C)C(=O)NCC(=O)N[C@@H](CCC(=O)O)C(=O)N[C@@H](Cc1ccccc1)C(=O)N[C@@H](CC(C)C)C(=O)N[C@H](CCCCN)C(=O)N[C@H](CC(C)C)C(=O)N[C@H](CC(=O)O)C(=O)N[C@@H](CCCNC(=N)N)C(=O)N[C@H](CCCNC(=N)N)C(=O)N[C@@H](CCCNC(=N)N)C(=O)N[C@@H](CCCCN)C(=O)O)[C@@H](C)O)C(C)C | A549 SMAC knockout | cell death |  | 24 h | 70000 nM
